Published values gathered from unrelated publications.
Protocols differ between the studies behind these lines.
Organism: Staphylococcus aureus

SMILES | test | system | setting | MIC
CC[C@H](C)[C@H](NC(=O)[C@H](C)NC(=O)[C@H](CCCCN)NC(=O)[C@H](CCCNC(=N)N)NC(=O)[C@H](CCCCN)NC(=O)[C@H](CCCNC(=N)N)NC(=O)[C@H](CCCCN)NC(=O)[C@@H](N)CCCNC(=N)N)C(=O)N[C@@H](CO)C(=O)NCC(=O)N[C@@H](CO)C(=O)N[C@@H](CC(C)C)C(=O)N[C@H](C(=O)N[C@H](C(=O)N[C@@H](CC(C)C)C(=O)N[C@@H](Cc1ccccc1)C(=O)NCC(=O)N[C@@H](Cc1ccc(O)cc1)C(N)=O)[C@@H](C)O)C(C)C | broth microdilution | – | 24 h, 37 °C | 128 µM
COc1ccnc(NC(=S)N2CCN(c3ncc(C(F)(F)F)cc3Cl)CC2)c1 | – | MRSA USA300-FPR3757, clinical | – | 1.2 µM
C/C(=C\C(=O)OCCCCCCCCC(=O)O)C[C@@H]1OC[C@H](C[C@@H]2O[C@H]2[C@@H](C)[C@H](C)O)[C@@H](O)[C@H]1O | – | CRB, PBP4 deletion | – | 2 µg/mL
C[C@@H](O)[C@H](NC(=O)[C@H](Cc1c[nH]c2ccccc12)NC(=O)[C@H](Cc1c[nH]c2ccccc12)NC(=O)[C@H](Cc1c[nH]c2ccccc12)NC(=O)[C@@H](NC(=O)[C@H](Cc1c[nH]c2ccccc12)NC(=O)[C@H](CCCNC(=N)N)NC(=O)[C@@H](N)CCCNC(=N)N)[C@@H](C)O)C(=O)N[C@@H](Cc1c[nH]c2ccccc12)C(=O)N[C@@H](CCCNC(=N)N)C(=O)N[C@@H](CCCNC(=N)N)C(N)=O | – | MRSA 43300 | 24 h, 37 °C | 4 µM
CC[C@H](C)[C@H](N)C(=O)N[C@@H](CC(C)C)C(=O)NCC(=O)N[C@H](CCCCN)C(=O)N[C@H](C(=O)N[C@@H](Cc1c[nH]c2ccccc12)C(=O)N[C@@H](CCCCN)C(=O)NCC(=O)N[C@H](C(=O)N[C@@H](CCCCN)C(=O)N[C@@H](CC(=O)O)C(=O)N[C@H](C(=O)N[C@@H](CC(C)C)C(N)=O)[C@@H](C)CC)[C@@H](C)CC)[C@@H](C)CC | broth microdilution | MRSA ATCC 33591, Mueller-Hinton broth | 16 h, 37 °C | > 100 µM
CC[C@H](C)[C@H](NC(=O)[C@H](CC(C)C)NC(=O)[C@H](CCCNC(=N)N)NC(=O)[C@@H](N)CCCNC(=N)N)C(=O)N[C@@H](CC(C)C)C(=O)N[C@H](C(=O)N[C@@H](CCCCN)C(=O)N[C@H](C(=O)NCC(=O)N1CCC[C@H]1C(=O)N[C@H](C(=O)N[C@H](C(=O)N[C@@H](Cc1ccc(O)cc1)C(=O)N[C@@H](CCCCN)C(=O)N[C@@H](Cc1ccc(O)cc1)C(=O)N[C@@H](Cc1ccccc1)C(=O)N[C@@H](CCCCN)C(=O)N[C@@H](CCCCN)C(=O)N[C@@H](CCC(N)=O)C(=O)N[C@@H](CC(C)C)C(=O)N[C@@H](CCCCN)C(=O)N[C@@H](CCCCN)C(=O)N[C@@H](CC(C)C)C(N)=O)[C@@H](C)CC)[C@@H](C)CC)[C@@H](C)O)[C@@H](C)O | broth microdilution | KCTC 1621, Mueller-Hinton broth | 24 h, 37 °C | 16 µM
CC[C@H](C)[C@H](NC(=O)[C@H](Cc1c[nH]c2ccccc12)NC(=O)[C@@H](NC(=O)[C@H](Cc1c[nH]c2ccccc12)NC(=O)[C@@H]1CCCN1C(=O)[C@@H](NC(=O)[C@H](C)N)[C@@H](C)CC)[C@@H](C)CC)C(=O)N[C@@H](Cc1c[nH]c2ccccc12)C(=O)N[C@@H](CCCNC(=N)N)C(=O)N[C@@H](CC(C)C)C(=O)N[C@@H](CC(C)C)C(=O)N[C@@H](CCCNC(=N)N)C(=O)N[C@@H](CCCCN)C(=O)NCC(N)=O | broth microdilution | ATCC 6051 | 18 h, 37 °C | 0.23 µM
Cc1ccc2[nH]c3c(c2c1)CCCC3NCCc1ccc(Br)cc1 (stereo not shown) | broth microdilution | SA113 ΔtarO | – | 4 µg/mL
CC[C@H](C)[C@H](NC(=O)[C@H](CC(C)C)NC(=O)[C@H](CCCNC(=N)N)NC(=O)[C@@H](N)CCCNC(=N)N)C(=O)N[C@@H](CCCNC(=N)N)C(=O)N[C@@H](CCCCN)C(=O)N[C@@H](CC(C)C)C(=O)N[C@@H](CCCCN)C(=O)NCC(=O)N[C@@H](CC(C)C)C(=O)N[C@@H](CCCCN)C(=O)N[C@@H](CCCCN)C(=O)N[C@@H](Cc1ccc(O)cc1)C(=O)N[C@@H](CC(C)C)C(=O)N[C@@H](Cc1ccc(O)cc1)C(=O)N[C@@H](Cc1ccccc1)C(=O)N[C@@H](CCCCN)C(=O)N[C@@H](CC(C)C)C(=O)N[C@@H](CCC(N)=O)C(=O)N[C@@H](CC(C)C)C(=O)N[C@@H](CC(C)C)C(=O)N[C@@H](CCCCN)C(=O)N[C@@H](CCCCN)C(N)=O | – | KCTC 1621, Mueller-Hinton broth | with: 2.5 mM CaCl2 | 8 µM
CCCCCCCC/C=C\CCCCCCCC(=O)NS(=O)(=O)NCCC | – | ATCC 33591 methicillin-resistant | – | > 200 µg/mL
CC[C@H](C)[C@H](NC(=O)[C@H](CCCCN)NC(=O)[C@H](CC(=O)O)NC(=O)[C@H](CC(C)C)NC(=O)[C@@H](NC(=O)[C@H](CC(N)=O)NC(=O)[C@H](CC(C)C)NC(=O)[C@@H](NC(=O)[C@H](Cc1ccccc1)NC(=O)[C@H](CCCCN)NC(=O)[C@H](CCCCN)NC(=O)CNC(=O)[C@H](C)NC(=O)[C@H](CC(N)=O)NC(=O)[C@H](CCCCN)NC(=O)[C@H](Cc1ccccc1)NC(=O)[C@H](CC(N)=O)NC(=O)[C@H](CCC(=O)O)NC(=O)[C@H](Cc1c[nH]c2ccccc12)NC(=O)[C@H](CC(C)C)NC(=O)[C@@H](N)CO)[C@@H](C)CC)[C@@H](C)CC)C(=O)N[C@@H](CCCNC(=N)N)C(N)=O | – | ATCC 6538 | overnight, 37 °C, no added salts or serum | 2 µM
CC[C@H](C)[C@H](NC(=O)[C@H](CC(C)C)NC(=O)[C@H](CCCNC(=N)N)NC(=O)[C@@H](N)CCCNC(=N)N)C(=O)N[C@@H](CCCNC(=N)N)C(=O)N[C@@H](CCCCN)C(=O)N[C@@H](CC(C)C)C(=O)N[C@@H](CCCCN)C(=O)NCC(=O)N1CCC[C@H]1C(=O)N[C@H](C(=O)N[C@H](C(=O)N[C@@H](Cc1ccc(O)cc1)C(=O)N[C@@H](CC(C)C)C(=O)N[C@@H](Cc1ccc(O)cc1)C(=O)N[C@@H](Cc1ccccc1)C(=O)N[C@@H](CCCCN)C(=O)N[C@@H](CC(C)C)C(=O)N[C@@H](CCC(N)=O)C(=O)N[C@@H](CC(C)C)C(=O)N[C@@H](CC(C)C)C(=O)N[C@@H](CCCCN)C(=O)N[C@@H](CCCCN)C(N)=O)[C@@H](C)CC)[C@@H](C)CC | – | CCARM 3095, methicillin-resistant, Mueller-Hinton broth | 24 h | 64 µM
CC(C)C[C@H](NC(=O)CNC(=O)CNC(=O)CNC(=O)CNC(=O)CNC(=O)[C@H](Cc1ccc(O)cc1)NC(=O)[C@H](CC(C)C)NC(=O)[C@@H](NC(=O)CNC(=O)[C@H](Cc1ccc(O)cc1)NC(=O)[C@H](CCCCN)NC(=O)[C@H](CC(N)=O)NC(=O)[C@@H](NC(=O)[C@H](CCCCN)NC(=O)[C@H](Cc1c[nH]c2ccccc12)NC(=O)CN)[C@@H](C)O)[C@@H](C)O)C(=O)N[C@@H](CCCCN)C(=O)N[C@@H](CCCCN)C(=O)N[C@@H](CC(C)C)C(=O)N[C@@H](CC(C)C)C(=O)N[C@@H](CC(C)C)C(=O)N[C@@H](CC(C)C)C(=O)N[C@@H](CC(C)C)C(=O)N[C@@H](CCCCN)C(=O)N[C@@H](CCCCN)C(=O)N[C@@H](CC(C)C)C(=O)NCC(=O)O | – | USA300 MRSA, Mueller-Hinton broth | 18 to 24 h, 37 °C | 32 µg/mL

A few entries again:
SMILES | test | system | setting | MIC
Cc1ccc2[nH]c3c(c2c1)CCCC3NCCc1ccc(Br)cc1 (stereo not shown) | broth microdilution | SA113 ΔtarO | – | 4 µg/mL
COc1ccnc(NC(=S)N2CCN(c3ncc(C(F)(F)F)cc3Cl)CC2)c1 | – | MRSA USA300-FPR3757, clinical | – | 1.2 µM
